Experimental data pooled from the literature.
Lines come from different studies, so protocols differ. Several values in a cell are separate wells, animals, samples, runs or records. ± marks the error that the study gave.
UniProt P16234, sequence (whole entry, unmodified, looked up): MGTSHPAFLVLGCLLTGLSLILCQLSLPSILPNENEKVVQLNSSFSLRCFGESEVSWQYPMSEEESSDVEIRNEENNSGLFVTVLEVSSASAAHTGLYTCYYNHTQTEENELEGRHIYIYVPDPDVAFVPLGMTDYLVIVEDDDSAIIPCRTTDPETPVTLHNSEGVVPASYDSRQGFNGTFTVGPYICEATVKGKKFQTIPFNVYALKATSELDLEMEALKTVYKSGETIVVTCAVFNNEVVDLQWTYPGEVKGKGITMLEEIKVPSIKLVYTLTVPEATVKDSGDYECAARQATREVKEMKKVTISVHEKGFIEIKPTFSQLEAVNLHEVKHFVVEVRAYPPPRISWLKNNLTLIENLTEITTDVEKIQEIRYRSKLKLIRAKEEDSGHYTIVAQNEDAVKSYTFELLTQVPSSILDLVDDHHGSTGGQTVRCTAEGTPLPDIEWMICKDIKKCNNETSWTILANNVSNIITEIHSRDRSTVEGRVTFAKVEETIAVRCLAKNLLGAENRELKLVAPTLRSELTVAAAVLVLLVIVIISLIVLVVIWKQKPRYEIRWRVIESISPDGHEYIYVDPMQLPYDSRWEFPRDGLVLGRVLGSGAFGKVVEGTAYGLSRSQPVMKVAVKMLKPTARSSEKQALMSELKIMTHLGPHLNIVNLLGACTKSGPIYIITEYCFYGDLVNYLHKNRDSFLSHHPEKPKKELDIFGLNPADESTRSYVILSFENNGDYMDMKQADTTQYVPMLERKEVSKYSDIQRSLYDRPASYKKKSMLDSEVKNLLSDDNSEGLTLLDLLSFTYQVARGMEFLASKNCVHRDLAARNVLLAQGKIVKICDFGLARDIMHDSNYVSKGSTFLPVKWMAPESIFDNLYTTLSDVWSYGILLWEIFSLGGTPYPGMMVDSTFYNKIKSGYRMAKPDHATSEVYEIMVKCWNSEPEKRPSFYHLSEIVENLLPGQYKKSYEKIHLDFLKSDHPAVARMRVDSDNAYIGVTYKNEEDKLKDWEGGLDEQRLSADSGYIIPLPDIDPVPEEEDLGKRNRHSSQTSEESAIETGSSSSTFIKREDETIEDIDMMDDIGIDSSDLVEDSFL
UniProt P09598, sequence (whole entry, looked up): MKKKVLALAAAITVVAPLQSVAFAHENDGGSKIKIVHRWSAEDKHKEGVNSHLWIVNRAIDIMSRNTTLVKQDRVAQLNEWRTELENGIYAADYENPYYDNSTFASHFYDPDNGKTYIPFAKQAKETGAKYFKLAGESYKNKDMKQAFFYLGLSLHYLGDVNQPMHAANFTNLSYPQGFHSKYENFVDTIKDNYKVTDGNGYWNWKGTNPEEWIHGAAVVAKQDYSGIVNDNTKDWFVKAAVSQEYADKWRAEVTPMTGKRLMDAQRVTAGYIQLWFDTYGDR

SMILES | tested on | test | test system | conditions | how to read | quantity | value
CC1COC2=C1C(=O)C(=O)c1c2ccc2c1C(OC(=O)CNC(=O)C(N)CO)CCC2(C)C (mixture of isomers) |  |  | saline with 20% PEG 400 | 24 h, 25 °C |  | equilibrium solubility | 904 µg/mL
[2H]C([2H])([18F])[C@]([2H])(N)C(=O)O |  | PET | athymic nude mice, U-87 MG | dose not given, 30 min post-injection | reference: tumour over muscle | tumour-to-muscle ratio | 1.74 ± 0.43
CC(C)[C@H]1NC(=O)C[C@H]2/C=C/CCSSC[C@@H](NC1=O)C(=O)N[C@H](Cc1cccc3ccccc13)C(=O)NCC(=O)O2 | Platelet-derived growth factor receptor alpha (PDGFRA, Homo sapiens, UniProt P16234, V561D) | enzyme activity, inhibitor |  | 10 µM |  | inhibition | 8.4%
O=C1NC2(CC2)COc2ncc(F)cc2[C@H]2COCCN2c2ccn3ncc1c3n2 |  |  | Sprague-Dawley rat, female, brain | oral, 5 mg/kg/day, 4 weeks dosing, end of recovery |  | organ-to-body weight ratio | 0.68 ± 0.039%
O=C1NC(=O)c2c1c1cc(F)c[n+]3c1c1c2c2cc(O)ccc2[n]1[Ru-4]312([N]=C=S)[S+]3CC[S+]1CC[S+]2CC3 (stereo not drawn) | Receptor-type tyrosine-protein kinase FLT3 (FLT3, Homo sapiens, UniProt P36888, D835Y) | enzyme activity |  | 100 nM, human enzyme, added: 10 µM ATP | reference: untreated | remaining activity | -3%
CC[C@H](C)[C@H](NC(=O)[C@H](CCCNC(=N)N)NC(=O)[C@H](CCCCN)NC(=O)[C@H](Cc1ccc(O)cc1)NC(=O)[C@H](CC(=O)O)NC(=O)[C@H](C)NC(=O)CNC(=O)CCOCCOCCOCCNC(=O)CN1CCN(CC(=O)O)CCN(CC(=O)O)CCN(CC(=O)O)CC1)C(=O)N[C@H](C(=O)N[C@H](C(=O)N[C@@H](CCCCN)C(=O)N[C@H](C(=O)N[C@@H](CC(N)=O)C(N)=O)C(C)C)C(C)C)[C@@H](C)O [copper-64 labelled] |  | ex vivo gamma counting | C57BL/6J male mice, B16-F10 tumour, brain | intravenous, 1.85 MBq, 5 min |  | tissue uptake | 0.296 ± 0.046 %ID/g
CC(=O)N[C@H](C(=O)N[C@@H](CCCC(=O)OC(C)(C)C)C(=O)N[C@@H](CCC1CCCCC1)C(=O)N[C@@H](CC(=O)O)C(=O)COC(=O)c1c(C)cccc1C)C(C)(C)C |  |  | C57BL/6N mouse, female, whole blood | intraperitoneal, dose not given, 0.5 h |  | blood concentration | 674 µM
CC(C)[C@@H]1NC(=O)CNC(=O)[C@H](CC(N)=O)NC(=O)[C@H](CCCNC(=N)N)NC(=O)[C@H](Cc2ccc(O)cc2)NC(=O)[C@H](C(C)C)NC(=O)[C@@H](NC(=O)[C@@H](NC(=O)[C@H](CC(N)=O)NC(=O)[C@H](Cc2c[nH]c3ccccc23)NC(=O)[C@H](C)NC(=O)[C@H](Cc2ccccc2)NC(=O)CNC(=O)[C@H](CCCCN)NC(=O)[C@H](Cc2ccccc2)NC(=O)[C@H](Cc2ccccc2)NC(=O)[C@H](CCCCN)NC(=O)OCC2c3ccccc3-c3ccccc32)C(C)C)CSSC[C@@H](C(=O)N[C@@H](Cc2c[nH]cn2)C(=O)N[C@@H](CCCNC(=N)N)C(=O)N[C@@H](CCCNC(=N)N)C(=O)N[C@@H](C)C(=O)N[C@@H](CC(N)=O)C(N)=O)NC(=O)[C@H](C(C)C)NC(=O)[C@H](CCCNC(=N)N)NC1=O |  |  | ICR mouse | ip, 5 mg/kg | direction not given | tremor score | 0
C=Cc1c(C)c2cc3nc(c(CC(=O)[O-])c4[n-]c(cc5nc(cc1[n-]2)C(C)=C5CC)c(C)c4C(=O)[O-])C(CCC(=O)[O-])C3C.[Cu+2].[Na+].[Na+].[Na+] (stereo not drawn) |  |  | Wistar rat, male | oral, 1000 mg/kg daily, 28 days |  | blood urea nitrogen | 23.5 ± 2.26 mg/dL
COc1ccccc1-c1n[nH]c2nc(NC3CCN(C(=O)Cc4ccc(F)cc4F)CC3)ncc12 |  | bead binding, competition bead pull-down, item: LINJ.23.0410 | Leishmania donovani axenic amastigote extract | 10 µM | reference: vehicle | relative abundance | 0.94
COc1ccc([C@@H]2CC(=O)c3c(O)cc(O[C@@H]4O[C@H](CO)[C@@H](O)[C@H](O)[C@H]4O[C@@H]4O[C@@H](C)[C@H](O)[C@@H](O)[C@H]4O)cc3O2)cc1O |  |  | Sprague-Dawley rat, male, obese, faeces | oral, 100 mg/kg, 24-36 h |  | faecal excretion | 511 ± 296 ng
CCCCCCCCCCCC(=O)C(C)C(=O)N1CCC[C@H]1C(=O)NC(C)(C)C(=O)NC(C)(C)C(=O)NC(C)(C)C(=O)N[C@](C)(CC)C(=O)NCCC(=O)N[C@@H](C)C(=O)N[C@](C)(CC)C(=O)N[C@@H](C)C(=O)N[C@@H](CC(C)C)C(=O)N[C@](C)(CC)C(=O)NCCC(=O)N[C@@H](C)C(=O)N[C@](C)(CC)C(=O)NCCC(=O)N[C@@H](C)C(=O)NC(C)(C)C(=O)NC(C)(C)C(=O)NC(C)(C)C(=O)N[C@@H](C)C(=O)N[C@@H](CC(=O)O)C(=O)O (stereo partly drawn) |  | LC-MS | buffer with human neutrophil elastase | 40 µM, 60 min, pH 7.5, 37 °C | reference: 0 h | remaining intact peptide | 66.1% and 73.5%
CCCCCCCCCCCCCCCC(=O)N[C@@H](CCC(=O)NCCOCCOCCC(=O)NCCOCCOCCC(=O)NCCCC[C@H](NC(=O)[C@H](CC(=O)O)NC(=O)[C@H](CC(C)C)NC(=O)[C@H](Cc1ccc(O)cc1)NC(=O)[C@H](CCCCN)NC(=O)[C@H](CO)NC(=O)[C@H](Cc1ccc(O)cc1)NC(=O)[C@H](CC(=O)O)NC(=O)[C@H](CO)NC(=O)[C@@H](NC(=O)[C@H](Cc1ccccc1)NC(=O)[C@@H](NC(=O)CNC(=O)[C@H](CCC(N)=O)NC(=O)[C@@H](CO)NC(=O)[C@@H](N)Cc1c[nH]cn1)[C@@H](C)O)[C@@H](C)O)C(=O)N[C@@H](CCCNC(=N)N)C(=O)N[C@@H](CCCNC(=N)N)C(=O)N[C@@H](C)C(=O)N[C@@H](CCC(N)=O)C(=O)N[C@@H](CC(=O)O)C(=O)N[C@@H](Cc1ccccc1)C(=O)N[C@H](C(=O)N[C@@H](CCC(N)=O)C(=O)N[C@@H](Cc1c[nH]c2ccccc12)C(=O)N[C@@H](CC(C)C)C(=O)N[C@@H](CC(C)C)C(=O)N[C@@H](CC(N)=O)C(=O)N[C@H](C(=O)NCC(=O)NCC(=O)N1CCC[C@H]1C(=O)N[C@@H](CO)C(=O)N[C@@H](CO)C(=O)NCC(=O)N[C@@H](C)C(=O)N1CCC[C@H]1C(=O)N1CCC[C@H]1C(=O)N1CCC[C@H]1C(=O)N[C@@H](CO)C(N)=O)[C@@H](C)O)C(C)C)C(=O)O |  |  | Sprague-Dawley rat, female | subcutaneous, 20 µg/kg once daily, 14 days |  | creatinine | 24.8 ± 1.9 µmol/L
CC(C)(C)C(=O)OCOP(=O)(OCOC(=O)C(C)(C)C)C1CCCN(O)C1=O (stereo not drawn) | OVCAR-5 |  |  |  |  | TGI | 62.7 µM
C=Cc1c(C)c2cc3nc(c(CC(=O)O)c4[nH]c(cc5nc(cc1[nH]2)C(C)=C5CC)c(C)c4C(=O)O)[C@@H](CCC(=O)NCCCC[C@H](NC(C)=O)C(=O)N[C@@H](Cc1ccccc1)C(=O)N[C@@H](Cc1ccccc1)C(=O)N[C@H](C(=O)N[C@@H](CC(C)C)C(=O)N[C@@H](CCCCN)C(=O)N[C@@H](CO)C(=O)NCC(=O)N[C@@H](CCC(N)=O)C(=O)N[C@@H](Cc1ccc(O)cc1)C(=O)N[C@@H](C)C(=O)N[C@@H](CO)C(=O)N[C@@H](Cc1ccc(O)cc1)C(=O)N[C@@H](Cc1c[nH]cn1)C(=O)N[C@@H](CS)C(=O)N[C@@H](Cc1c[nH]c2ccccc12)C(=O)N[C@@H](CS)C(=O)N[C@@H](Cc1c[nH]c2ccccc12)C(=O)N[C@@H](CCCNC(=N)N)C(=O)N[C@@H](CC(=O)O)C(=O)N1CCC[C@H]1C(=O)NCC(=O)N[C@@H](CCCNC(=N)N)C(=O)N[C@@H](CO)C(=O)NCC(=O)NCC(=O)N[C@@H](CO)C(=O)N[C@@H](CCCCN)C(N)=O)C(C)C)[C@@H]3C |  |  | mouse, blood | 6 h |  | blood concentration | 91.8 µg/mL and 109 µg/mL
CCN(CC)CCOc1ccc(-c2nnn(Cc3ccc(OC)cc3)c2N)cc1 |  |  | beagle dog | oral, at least 40 mg/kg |  | systolic blood pressure increase | ≤ 14%
CS(C)(=O)=Nc1ccc(-c2ccc(-c3nc4cc(O[C@@H]5CO[C@H]6[C@@H]5OC[C@H]6O)[nH]c4cc3F)cc2)cc1 | Phospholipase C (Bacillus cereus, UniProt P09598) | enzyme activity, inhibitor |  | 10 µM |  | inhibition | 43%
Cc1nc2cccc(OCC(C)(C)C(=O)NC(C)C)c2c(N)c1C(=O)[O-].[Na+] | Salmonella typhimurium | Ames plate incorporation | TA1537 | 0.32 mg/plate, added: with rat liver S9 |  | revertant colonies | 14 ± 3 colonies/plate

Some of these lines once more:
SMILES | tested on | test | test system | conditions | how to read | quantity | value
COc1ccc([C@@H]2CC(=O)c3c(O)cc(O[C@@H]4O[C@H](CO)[C@@H](O)[C@H](O)[C@H]4O[C@@H]4O[C@@H](C)[C@H](O)[C@@H](O)[C@H]4O)cc3O2)cc1O |  |  | Sprague-Dawley rat, male, obese, faeces | oral, 100 mg/kg, 24-36 h |  | faecal excretion | 511 ± 296 ng
CCCCCCCCCCCC(=O)C(C)C(=O)N1CCC[C@H]1C(=O)NC(C)(C)C(=O)NC(C)(C)C(=O)NC(C)(C)C(=O)N[C@](C)(CC)C(=O)NCCC(=O)N[C@@H](C)C(=O)N[C@](C)(CC)C(=O)N[C@@H](C)C(=O)N[C@@H](CC(C)C)C(=O)N[C@](C)(CC)C(=O)NCCC(=O)N[C@@H](C)C(=O)N[C@](C)(CC)C(=O)NCCC(=O)N[C@@H](C)C(=O)NC(C)(C)C(=O)NC(C)(C)C(=O)NC(C)(C)C(=O)N[C@@H](C)C(=O)N[C@@H](CC(=O)O)C(=O)O (stereo partly drawn) |  | LC-MS | buffer with human neutrophil elastase | 40 µM, 60 min, pH 7.5, 37 °C | reference: 0 h | remaining intact peptide | 66.1% and 73.5%
